Assay results of several laboratories.
Each numbered part is a random draw from the data of one study; scales do not carry over between parts. Changes are numbered by the printed parent chain.
UniProt P28335, sequence (whole entry, looked up): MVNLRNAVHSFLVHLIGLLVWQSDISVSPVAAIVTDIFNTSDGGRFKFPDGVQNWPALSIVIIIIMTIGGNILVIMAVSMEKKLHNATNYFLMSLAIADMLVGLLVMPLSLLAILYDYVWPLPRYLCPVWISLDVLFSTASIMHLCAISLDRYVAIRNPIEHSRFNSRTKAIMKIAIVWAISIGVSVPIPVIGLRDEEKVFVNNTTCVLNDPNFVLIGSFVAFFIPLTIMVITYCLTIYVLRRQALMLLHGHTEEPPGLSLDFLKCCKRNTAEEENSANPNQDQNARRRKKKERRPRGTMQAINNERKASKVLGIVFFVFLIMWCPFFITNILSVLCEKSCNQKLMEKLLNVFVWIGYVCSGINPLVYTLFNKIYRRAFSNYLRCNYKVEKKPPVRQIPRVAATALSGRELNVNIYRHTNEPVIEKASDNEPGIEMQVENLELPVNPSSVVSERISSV

Study 1
Target: CCNE2, cyclin fold, Cln2 fusion (human)
Method: yeast growth competition, sequencing
Sample: yeast
Notes: strong parent motif
Baseline: not given
Reading: higher = stronger binding
Starting sequence: viral docking peptide; TSVRRALFTGGSD; partner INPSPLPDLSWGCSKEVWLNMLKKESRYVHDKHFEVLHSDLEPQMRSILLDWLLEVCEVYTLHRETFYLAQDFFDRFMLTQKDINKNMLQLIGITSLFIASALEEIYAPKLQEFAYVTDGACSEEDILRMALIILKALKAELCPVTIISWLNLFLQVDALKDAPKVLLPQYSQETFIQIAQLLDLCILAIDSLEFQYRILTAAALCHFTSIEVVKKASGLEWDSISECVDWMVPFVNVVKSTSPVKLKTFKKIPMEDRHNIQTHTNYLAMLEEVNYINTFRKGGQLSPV
`TSRRRALFTGGSD [V3R]`: “normalised enrichment score” 1.11.
For `TSVRRALFTLGSD [G10L]`, “normalised enrichment score” read 2.93.
`TSVRRALETGGSD [F8E]`: “normalised enrichment score” -0.297.
`TSVRRRLFTGGSD [A6R]`: “normalised enrichment score” 6.94.
`TSDRRALFTGGSD [V3D]` — result for “normalised enrichment score”: 0.0597.
Under “normalised enrichment score”, `TYVRRALFTGGSD [S2Y]` is recorded as 2.81.
Under “normalised enrichment score”, `TSVRRALFTWGSD [G10W]` is recorded as 2.09.
`TSVRRLLFTGGSD [A6L]` — result for “normalised enrichment score”: 1.85.

Study 2
Target: vanadate, free oxyanion
Method: microfluidic competitive inhibition
Sample: in vitro, cell-free expressed
Tested at: not given
Notes: derived from inhibition constants, unchanged parent 676 nM
Reading: lower = stronger binding
Starting sequence: PafA, mature enzyme, eGFP fusion (Elizabethkingia meningoseptica, UniProt Q9KJX5); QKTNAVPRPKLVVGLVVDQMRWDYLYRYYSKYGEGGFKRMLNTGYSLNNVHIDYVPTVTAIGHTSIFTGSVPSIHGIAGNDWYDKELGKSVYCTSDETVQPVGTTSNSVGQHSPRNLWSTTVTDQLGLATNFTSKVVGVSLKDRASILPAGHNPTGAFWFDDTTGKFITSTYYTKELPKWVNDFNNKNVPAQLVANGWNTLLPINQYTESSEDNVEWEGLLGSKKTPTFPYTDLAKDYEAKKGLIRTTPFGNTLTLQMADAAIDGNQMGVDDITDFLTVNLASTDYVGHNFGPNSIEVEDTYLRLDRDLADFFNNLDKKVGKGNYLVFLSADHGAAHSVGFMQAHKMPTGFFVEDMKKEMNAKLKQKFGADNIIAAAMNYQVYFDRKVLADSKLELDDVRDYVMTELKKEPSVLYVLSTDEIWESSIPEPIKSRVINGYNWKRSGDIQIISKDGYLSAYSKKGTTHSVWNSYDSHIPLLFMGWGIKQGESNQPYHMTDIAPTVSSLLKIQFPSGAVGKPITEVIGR
For `M378G`, “oxyanion analog dissociation constant” read 2.06 µM.
Under “oxyanion analog dissociation constant”, `Y383G` is recorded as 0.881 µM.
For `V468G`, “oxyanion analog dissociation constant” read 0.812 µM.
`R144G` — result for “oxyanion analog dissociation constant”: greater than 71.1 µM.
`I374V` — result for “oxyanion analog dissociation constant”: 0.949 µM.
`T121G` — result for “oxyanion analog dissociation constant”: 0.75 µM.
`S490V`: “oxyanion analog dissociation constant” 2.78 µM.
For `S146V`, “oxyanion analog dissociation constant” read 0.567 µM.

Further values, each from its own experiment
`CCCOc1ccc([C@H]2[C@H](C(=O)O)[C@@H](c3ccc4c(c3)OCO4)CN2CC(=O)Nc2c(CC)cccc2CC)cc1` has an inhibition of 4.84% (5-hydroxytryptamine receptor 2A (HTR2A, Homo sapiens, UniProt P28223); cell-free assay; 10 µM).
`COc1ccc2c(c[n+](C)c3c4cc5c(cc4ccc23)OCO5)c1OC` has a remaining activity of 101% (Mitogen-activated protein kinase 1 (MAPK1, Homo sapiens, UniProt P28482); enzyme activity, inhibitor; 0.5 µM; baseline: control).
For `CCC(=O)N[C@H]1CC[C@@H](C(=O)N(C)c2ccc(-c3nc4ccccc4o3)cc2)C1`, the inhibition was 8.87% (5-hydroxytryptamine receptor 2C (HTR2C, Homo sapiens, UniProt P28335); binding, radioligand binding; 10 µM).

A few entries again (study 1):
Under “normalised enrichment score”, `TSVRRALFTWGSD [G10W]` is recorded as 2.09.
`TSVRRALETGGSD [F8E]`: “normalised enrichment score” -0.297.
`TSRRRALFTGGSD [V3R]`: “normalised enrichment score” 1.11.
